Measured values pooled from the literature.
Parts stem from different laboratories: compare values within a part only.

Set 1
Target: RNA binding protein fox-1 homolog 2, RRM domain, GST-SBP tag (RBFOX2, Homo sapiens, UniProt O43251-10, residues 100-194)
Technique: RNA Bind-n-Seq
Form: RNA
Medium: in vitro
Concentration: 365 nM
Setting: natural RNA segment, single round, ends assumed
Baseline: no-protein control
Reading: higher = stronger binding
Target sequence (chain): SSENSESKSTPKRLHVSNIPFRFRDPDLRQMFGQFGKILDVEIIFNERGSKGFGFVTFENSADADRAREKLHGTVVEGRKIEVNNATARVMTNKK
Strand	RBNS enrichment (R)
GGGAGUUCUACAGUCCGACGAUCCACUUACUAACUGCCAGUUCUCCAGCACUGAGGUGGGGCAGAUAACGGGGCAUAUUUAAGGGGGCAUCUUUGUGUAAAAGAUGCAUGGAGUCAGGAGAAAACCACCUUCAUGGAAUUCUCGGGUGCCAA	0.318
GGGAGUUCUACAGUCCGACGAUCAUUACAAGCAUGAGCCACCGCACCCGGCCUCACAGUGACAGAUUCUGAGAAACAGCAUGCAAAACAUUUGAACCAUUUUCUACAUCUCCCAUUGUUGCAUAGAGAGUGUGUGGAAUUCUCGGGUGCCAA	22.5
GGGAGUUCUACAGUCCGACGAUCAAUUGCAUUCAUGGCUUCCACUUGUAAAUAUGCUAAGGGUAUUUUAAUAAAUCUUGGUUUCAUGUCCAUCUGGUGUGUGGUGGAGAUUUUUGUUUCAGUGGCCACUUGCUUGGAAUUCUCGGGUGCCAA	0.787
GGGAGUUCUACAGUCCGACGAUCCACUAAUCAUGAACACGUUUUUGCCAGUUUCAAUCAAGUCAGAGGCAUUUAAUAAAAUUAUCUACACCUUCGGAGUCUUGAGUUUUUGUUCGGGUUUGCCCUCACAGAGCUGGAAUUCUCGGGUGCCAA	0.648
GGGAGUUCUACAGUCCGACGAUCCCGGGUUAUGGUCGGGUUUCUAUUGGGAAUGCUCUUUGUGCUUUUGGGCAUCUGAAUGGAAGCUUUACAUAGAACCUUAGGUAGAACUCCCCCAAAUCGCCAUAUUUAAAUGGAAUUCUCGGGUGCCAA	1.08
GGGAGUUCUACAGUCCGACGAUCAUGAGUCACUUCCUGAACCCAUUGACCAAAGGUGGACAGAGACAAUCCUGUAGACCUUGACAUUCAGAAAGAUGUGAGCUGCUUACUGAUCAUAUAUGCAUACGUUUCUUUGGAAUUCUCGGGUGCCAA	0.603
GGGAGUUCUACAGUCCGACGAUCAGAGGGAGUGGAUAGCAAGUAUCCCAAGAAACCAACCUGUAAGUCAGGUCCAGCCAGUCCAAGCACAUGGCUUCCCAUCUGGGUGAGCCCACUGUCCCACUCCCACAUGUUGGAAUUCUCGGGUGCCAA	0.538
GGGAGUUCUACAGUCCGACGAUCAAAAAUGAAGGAGCUUUGUAAAUUUUUUAAAAAUUAUGAAUCGUAUCAAGUAGUUGUUUACAUUUGACAAAAUAGGAACUAUGCCGGCAGAGUCCAACCGAAAACCCCCUUGGAAUUCUCGGGUGCCAA	0.31
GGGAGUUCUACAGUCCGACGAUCCUUGUUCAAUGGUUGUAUUUAGUGAGCUCAUAGAGGUCCAUCAUAUCAUGACCGAGCUAGGUUGUGUGGGCAGGAAGGUAGGGCUAAGGGGUUGUAGCCUUGCUGGGCAGUGGAAUUCUCGGGUGCCAA	0.668
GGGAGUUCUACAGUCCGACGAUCUCACACUCACACCAGUGCAUUACACUAACCUUGUUCACUGGAUUGUCUGGGGUGACUUGGGCUCAUAUCCACAAUAUUUGGUAUACGGUAGUAGGUUGGUGGGGGUGGGGUGGAAUUCUCGGGUGCCAA	0.302
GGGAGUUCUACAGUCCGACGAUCGUUGAUGAUACAUUUGGAAGGAUUUGCUUGUUUAAUAUGUACAUUUUUUGUGUUAACAGCUUUUUGACACAAUUACUGGGUAAUUUCUAAUAUAGGCAGCAGACUGUUUUUGGAAUUCUCGGGUGCCAA	0.717
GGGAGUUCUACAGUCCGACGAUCUCAGUGCUAAUCAUUGUUUUUUCCUUUGUAAAUGUUGAUUCAGAAAAGGAAAGCACAGGCUAAGCAGUUGAAGGUUCCCCACCAUUCAGUGAGAGCAGAACCCCCAUUCCUGGAAUUCUCGGGUGCCAA	0.273

Set 2
Target: UBE2L3 UBC core domain (UniProt P68036)
Chain of UniProt P68036 (whole entry, looked up): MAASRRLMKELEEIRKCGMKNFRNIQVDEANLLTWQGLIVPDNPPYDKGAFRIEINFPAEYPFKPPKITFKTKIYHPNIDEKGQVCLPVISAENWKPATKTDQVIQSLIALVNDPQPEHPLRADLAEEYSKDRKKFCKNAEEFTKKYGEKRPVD
Technique: yeast two-hybrid
Medium: yeast
Setting: mostly zero background
Baseline: not given
Reading: higher = stronger interaction
B1: TRIM4 RING domain (UniProt Q9C037); chain EAEDIQEELTCPICLDYFQDPVSIECGHNFCRGCLHRNWAPGGGPFPCPECRHPSAPAALRP
B2: DTX4 RING domain (UniProt Q9Y2E6); chain QKVRHPPDEDCTICMERLTAPSGYKGPQPTVKPDLVGKLSRCGHVYHIYCLVAMYNNGNKDGSLQCPTCKTIYGVKTGTQ
B3: TRIM5 RING domain (UniProt Q9C035); chain ILVNVKEEVTCPICLELLTQPLSLDCGHSFCQACLTANHKKSMLDKGESSCPVCRISYQPENIRP
B4: TRIM24 RING domain (UniProt O15164); chain EAARLNLLDTCAVCHQNIQSRAPKLLPCLHSFCQRCLPAPQRYLMLPAPMLGSAETPPPVPAPGSPVSGSSPFATQVGVIRCPVCSQECAERHII
B5: RC3H1 RING domain (UniProt Q5TC82); chain QAPQWTDFLSCPICTQTFDETIRKPISLGCGHTVCKMCLNKLHRKACPFDQTTINTDIELL
B6: SH3RF2 RING domain (UniProt Q8TEC5); chain DDLTLLDLLECPVCFEKLDVTAKVLPCQHTFCKPCLQRVFKAHKELRCPECRTPVFSNIEAL
B7: VPS41 RING domain (UniProt P49754); chain KGVLVDEENICESCLSPILPSDAAKPFSVVVFHCRHMFHKECLPMPSMNSAAQFCNICSAKNRGPGSAI
B8: RNF208 RING domain (UniProt Q9H0X6); chain SSAAAGEPLECPTCGHSYNVTQRRPRVLSCLHSVCEQCLQILYESCPKYKFISCPTCRRETVLFTDYG
B9: TRIML1 RING domain (UniProt Q8N9V2); chain LMENLREELTCFICLDYFSSPVTTECGHSFCLVCLLRSWEEHNTPLSCPECWRTLEGPHFQS
Molecule	lacZ reporter activity
B1 (TRIM4 RING domain)	0
B2 (DTX4 RING domain)	0
PAELEVQASECVVCLEREAQMIFLNCGHVCCCQQCCQPLRTCPLCRQDIAQRLRIY (LRSAM1 RING domain (UniProt Q6UWE0))	0
B3 (TRIM5 RING domain)	0
MPIRALCTICSDFFDHSRDVAAIHCGHTFHLQCLIQWFETAPSRTCPQCRIQVGKRTIIN (TRAIP RING domain (UniProt Q9BWF2))	0
B4 (TRIM24 RING domain)	0
B5 (RC3H1 RING domain)	0
B6 (SH3RF2 RING domain)	0
B7 (VPS41 RING domain)	0
VEPSEENSKDCVVCQNGTVNWVLLPCRHTCLCDGCVKYFQQCPMCRQFVQESFALC (CGRRF1 RING domain (UniProt Q99675))	0
B8 (RNF208 RING domain)	0
B9 (TRIML1 RING domain)	0

Set 3
Organism: Saccharomyces cerevisiae
Read-out: binding
Technique: yeast competitive growth sequencing
Form: peptide
Strain: cyclin D2-Cln2 fusion strain
Setting: peptide tiling library
Reading: direction not given
Molecule	enrichment score
QDYERRLLRQIVIQNE	-0.609
RSLKLDGLLEEN	-0.596
ALLRRLQDVANDRGSH	1.87
LAKRALKYTD	-0.661
CFRCLLFSFSGRSGVE	-1.78
IQKKLRFEDTLEFVGF	-0.548
RVSGLLSWTLSRVLWL	-1.47
TSSAQRRLEIPSGGAD	-2.01
VLLKRLQDVVSERANH	2.05

Set 4
Target: RING finger protein unkempt homolog, zinc fingers 1-6, SBP tag (UNK, Homo sapiens, UniProt Q9C0B0, residues 30-357)
Chain of UniProt Q9C0B0 (30-357, looked up): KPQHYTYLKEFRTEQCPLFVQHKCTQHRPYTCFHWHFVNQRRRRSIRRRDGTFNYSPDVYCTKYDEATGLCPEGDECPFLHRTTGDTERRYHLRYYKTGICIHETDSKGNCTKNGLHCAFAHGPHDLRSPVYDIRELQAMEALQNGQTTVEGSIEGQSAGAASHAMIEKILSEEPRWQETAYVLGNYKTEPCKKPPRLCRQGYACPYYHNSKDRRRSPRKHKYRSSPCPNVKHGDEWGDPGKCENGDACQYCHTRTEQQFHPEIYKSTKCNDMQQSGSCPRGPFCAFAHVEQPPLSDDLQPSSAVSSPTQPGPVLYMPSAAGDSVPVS
Technique: RNA Bind-n-Seq
Form: RNA
Medium: in vitro
Concentration: 100 nM
Setting: RNA with constant flanks, vertebrate orthologous sites, ends assumed
Baseline: input RNA pool
Reading: higher = stronger binding
Strand	bound/input enrichment [ratio]
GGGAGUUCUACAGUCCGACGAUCAGAACCUAAACUUAUAGCAAAAGAGCCAAGCAGUAGUUUUUUUGUAAAUGUAAAAAUAAUUAGAUCCAGACUUUGUUUCCUUCAAUUUUAAAAAUAAAAAAUACCUCAGUGCUAUGUUUUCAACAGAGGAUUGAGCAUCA	0.873
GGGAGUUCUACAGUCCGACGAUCUUAUUUUGUACAGGGCCUUCUCUGUACUAGUUCGUUGUCGUUAUAAAACAGUUAGCAAAACGGCCUACAUUUGUAUUUAUUUUCUACUCCGUAUUUUCCCCCACCUUAUGUGUGUUCUUUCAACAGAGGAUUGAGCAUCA	0.689
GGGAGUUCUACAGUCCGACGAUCUCCUGUGUUGGUGCAGAGUGCUCUGUACCAGUGCUCAUCAUCCUUCAUACCGACUGUACCUAGUUAUAGGAAUUUAAUAUUUUUUAAAGUUUUACAUUGCUGUAUAUUCAAAGAUUUGUUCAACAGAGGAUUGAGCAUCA	0.969
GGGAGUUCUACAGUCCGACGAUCUUGUCUCGGGAGAGCCGGCCGGGGUUGGCAUUCAUCCUGCUCGCCCUUUGCUUUAUUUUCCUCGGGGCUGGGGUGAGGGUCGCGGCGCCCACUGAGCCUGAGGCGCGAGCUUGUGUGAUUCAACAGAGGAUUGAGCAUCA	0.437
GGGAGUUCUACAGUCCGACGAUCUUGUUUUGUACAGGGCAUUCUCUGUACUAGGUUGUUGUGGUUAUAAAGCAAUUAGCAAAACAGCUUACAUUUGUAUUUAUUUUCUAUUCCAUACCUCUCUGUCCCAUGUUUUUUCUCUUCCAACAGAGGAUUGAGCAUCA	0.829
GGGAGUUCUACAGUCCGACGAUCCCACUAUAAACAACUCAGGGCAGUACUCCCGCUAUCCUUACAGCAACCUAAAUCAGGGAUUAGUUAACAGUACAGGGAUGAACCAGAACCUAGGCCUUACCAAUAGUGCUCCCCUGAACCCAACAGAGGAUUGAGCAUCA	1
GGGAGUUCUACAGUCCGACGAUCCACAUCUGGUGAUAUUUGGCCUGGCCUUUCAGCCUAUGAUAACAGUCCCAGAUCUCCUCAUAGUCCUUCACCGAUCGCUACACCACCUAGUCAGAGUUCGUCUUGCUCUGAUGCCCCCAUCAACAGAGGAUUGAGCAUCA	0.757
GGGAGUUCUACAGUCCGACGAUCAUCCCUCAGUGACAGUAUGCCAUCUGUAGCAGAUUCUCACUCUAGUCAUUUUUCUGAAUUUAGUUGUUCUGACCUAGAAAGCAUGAAAACUUCUUGUAGUCAUGGUUCUAGUGAUUAUCACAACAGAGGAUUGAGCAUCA	2.16
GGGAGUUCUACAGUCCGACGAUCCUGUUGUUAAGCACUGUGUUCCAGACCGCGUCUGACUUUAGCGUAAGCUAGGAGAUUUCAUAGUUUUAUUUUAACGAAACCUGCUUGACGCAGAGCAGUGGGGAGAGCAGUGUCCUCUACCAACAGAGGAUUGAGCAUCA	0.645
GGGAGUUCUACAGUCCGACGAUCCCAGUUUGUAUGUACAUUAUUCACAUUCCUCUCUGUUUCGUUUUGGUGGAAAAAGACAUUUUAGCCUUUUUAAGGUUAUUGAUUUAAUUUCAUGUUAUUUGGUUGCAUGAAGUUGCCCUUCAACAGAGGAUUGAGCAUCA	0.394
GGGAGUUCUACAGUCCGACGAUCUAGUGCUUAAGCCAAGAACAGUUCUAAAAUGCUAUUUAUUUGUGUCUGUAAGUUUGUACAAUAAUACUAUCAACCUCACUGUUCUUGAAUUUUGAUUUUUUUGGUGGGGAGGAAUAAGUUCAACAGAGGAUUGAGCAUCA	1.42
